Measured values gathered from unrelated publications.
Each numbered part is a random draw from the data of one study; scales do not carry over between parts. Substitutions count along the parent as printed.
Sequence of UniProt O15111 (whole entry, looked up): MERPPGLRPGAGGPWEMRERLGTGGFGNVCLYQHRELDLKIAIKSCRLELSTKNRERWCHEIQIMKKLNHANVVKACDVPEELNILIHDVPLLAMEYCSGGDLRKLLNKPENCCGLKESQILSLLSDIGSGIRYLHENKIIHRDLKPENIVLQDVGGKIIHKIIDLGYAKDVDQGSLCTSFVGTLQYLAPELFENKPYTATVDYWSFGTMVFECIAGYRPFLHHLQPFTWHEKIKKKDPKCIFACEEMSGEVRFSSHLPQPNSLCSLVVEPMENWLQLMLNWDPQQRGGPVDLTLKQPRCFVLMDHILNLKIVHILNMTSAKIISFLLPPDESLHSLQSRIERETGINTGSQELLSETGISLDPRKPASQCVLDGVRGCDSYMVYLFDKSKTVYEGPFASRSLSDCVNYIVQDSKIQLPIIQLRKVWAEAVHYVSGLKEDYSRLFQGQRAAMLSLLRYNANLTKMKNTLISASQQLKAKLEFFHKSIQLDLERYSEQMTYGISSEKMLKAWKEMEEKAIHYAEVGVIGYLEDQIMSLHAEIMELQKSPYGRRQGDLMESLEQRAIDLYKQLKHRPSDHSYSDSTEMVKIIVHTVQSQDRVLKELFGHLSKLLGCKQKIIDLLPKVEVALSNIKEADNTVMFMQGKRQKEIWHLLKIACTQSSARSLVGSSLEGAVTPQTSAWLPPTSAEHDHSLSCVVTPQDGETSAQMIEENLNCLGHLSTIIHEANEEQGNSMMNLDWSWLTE
Sequence of UniProt Q8N568 (whole entry, looked up): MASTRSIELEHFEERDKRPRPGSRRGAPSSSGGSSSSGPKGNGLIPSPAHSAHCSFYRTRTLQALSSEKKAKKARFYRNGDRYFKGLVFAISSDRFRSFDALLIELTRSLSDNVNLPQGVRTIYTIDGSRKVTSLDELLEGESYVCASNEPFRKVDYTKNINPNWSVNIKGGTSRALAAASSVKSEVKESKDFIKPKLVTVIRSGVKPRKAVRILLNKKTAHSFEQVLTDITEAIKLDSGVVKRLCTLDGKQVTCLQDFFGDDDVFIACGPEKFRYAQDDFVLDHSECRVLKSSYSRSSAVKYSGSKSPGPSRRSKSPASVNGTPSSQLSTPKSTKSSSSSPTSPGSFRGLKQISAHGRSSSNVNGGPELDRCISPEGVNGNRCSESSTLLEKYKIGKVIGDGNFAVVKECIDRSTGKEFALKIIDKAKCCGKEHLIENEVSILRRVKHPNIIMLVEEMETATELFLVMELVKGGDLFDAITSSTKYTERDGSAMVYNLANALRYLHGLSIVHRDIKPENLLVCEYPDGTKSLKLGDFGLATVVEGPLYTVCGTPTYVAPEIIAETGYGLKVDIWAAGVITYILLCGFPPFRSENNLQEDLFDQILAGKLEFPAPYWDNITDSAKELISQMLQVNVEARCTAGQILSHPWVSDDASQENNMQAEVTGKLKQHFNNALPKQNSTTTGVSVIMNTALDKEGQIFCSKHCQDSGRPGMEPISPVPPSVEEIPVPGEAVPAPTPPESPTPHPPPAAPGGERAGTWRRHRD
Sequence of UniProt Q16832 (whole entry, looked up): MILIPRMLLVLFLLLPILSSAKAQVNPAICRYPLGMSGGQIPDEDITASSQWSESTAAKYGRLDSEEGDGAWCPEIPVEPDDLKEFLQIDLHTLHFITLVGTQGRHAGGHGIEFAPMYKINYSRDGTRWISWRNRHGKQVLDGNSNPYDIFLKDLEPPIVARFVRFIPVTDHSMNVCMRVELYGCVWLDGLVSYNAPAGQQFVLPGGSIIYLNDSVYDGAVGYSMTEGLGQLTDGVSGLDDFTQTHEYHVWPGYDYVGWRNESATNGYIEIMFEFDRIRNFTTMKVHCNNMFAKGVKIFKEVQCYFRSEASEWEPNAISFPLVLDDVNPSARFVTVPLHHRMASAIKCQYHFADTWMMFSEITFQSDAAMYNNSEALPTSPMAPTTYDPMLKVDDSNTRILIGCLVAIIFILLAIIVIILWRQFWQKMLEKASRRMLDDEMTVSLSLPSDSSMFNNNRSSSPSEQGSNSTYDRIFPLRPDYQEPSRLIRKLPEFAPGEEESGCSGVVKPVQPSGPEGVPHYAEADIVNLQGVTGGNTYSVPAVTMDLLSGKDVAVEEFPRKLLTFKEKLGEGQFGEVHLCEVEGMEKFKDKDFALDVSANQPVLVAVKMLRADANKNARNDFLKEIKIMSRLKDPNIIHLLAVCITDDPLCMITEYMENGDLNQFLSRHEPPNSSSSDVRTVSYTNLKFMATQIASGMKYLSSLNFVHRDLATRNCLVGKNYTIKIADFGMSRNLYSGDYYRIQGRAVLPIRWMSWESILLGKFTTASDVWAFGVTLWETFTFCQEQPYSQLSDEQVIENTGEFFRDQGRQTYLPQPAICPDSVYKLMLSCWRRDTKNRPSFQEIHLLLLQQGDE
Sequence of UniProt Q6ZN16 (whole entry, looked up): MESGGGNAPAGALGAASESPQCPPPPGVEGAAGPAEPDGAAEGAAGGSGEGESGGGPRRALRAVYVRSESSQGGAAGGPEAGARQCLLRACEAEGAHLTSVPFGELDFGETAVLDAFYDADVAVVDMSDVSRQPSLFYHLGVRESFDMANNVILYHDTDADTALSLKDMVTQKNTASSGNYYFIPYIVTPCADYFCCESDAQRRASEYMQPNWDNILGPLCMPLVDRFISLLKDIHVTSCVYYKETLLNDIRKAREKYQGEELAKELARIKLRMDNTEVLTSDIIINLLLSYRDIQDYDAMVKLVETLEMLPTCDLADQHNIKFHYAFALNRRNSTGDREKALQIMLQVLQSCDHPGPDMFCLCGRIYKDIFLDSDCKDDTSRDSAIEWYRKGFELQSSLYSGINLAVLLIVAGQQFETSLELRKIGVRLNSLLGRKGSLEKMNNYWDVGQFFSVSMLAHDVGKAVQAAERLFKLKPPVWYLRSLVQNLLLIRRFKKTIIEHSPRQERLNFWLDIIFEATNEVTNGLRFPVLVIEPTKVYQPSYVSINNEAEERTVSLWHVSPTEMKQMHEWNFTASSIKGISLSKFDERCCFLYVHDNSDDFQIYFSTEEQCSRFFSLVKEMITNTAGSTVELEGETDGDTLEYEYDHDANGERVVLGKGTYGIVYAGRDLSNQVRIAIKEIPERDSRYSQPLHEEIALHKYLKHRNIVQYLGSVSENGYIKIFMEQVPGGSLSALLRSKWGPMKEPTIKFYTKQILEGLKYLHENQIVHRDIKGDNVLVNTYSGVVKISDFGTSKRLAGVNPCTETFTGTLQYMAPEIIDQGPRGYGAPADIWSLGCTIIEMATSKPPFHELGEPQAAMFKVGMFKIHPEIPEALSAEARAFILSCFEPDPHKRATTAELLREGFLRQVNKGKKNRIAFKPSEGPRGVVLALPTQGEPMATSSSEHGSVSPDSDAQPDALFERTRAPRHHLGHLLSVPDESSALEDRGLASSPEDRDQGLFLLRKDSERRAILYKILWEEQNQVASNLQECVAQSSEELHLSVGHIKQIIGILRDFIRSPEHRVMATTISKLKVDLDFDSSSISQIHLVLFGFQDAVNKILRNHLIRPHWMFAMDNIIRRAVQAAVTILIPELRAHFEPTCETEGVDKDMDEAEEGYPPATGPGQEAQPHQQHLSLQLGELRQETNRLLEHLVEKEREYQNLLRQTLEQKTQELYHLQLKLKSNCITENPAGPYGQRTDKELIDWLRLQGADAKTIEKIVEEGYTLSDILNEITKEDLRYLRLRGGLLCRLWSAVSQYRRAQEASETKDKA
Sequence of UniProt P31751 (whole entry, looked up): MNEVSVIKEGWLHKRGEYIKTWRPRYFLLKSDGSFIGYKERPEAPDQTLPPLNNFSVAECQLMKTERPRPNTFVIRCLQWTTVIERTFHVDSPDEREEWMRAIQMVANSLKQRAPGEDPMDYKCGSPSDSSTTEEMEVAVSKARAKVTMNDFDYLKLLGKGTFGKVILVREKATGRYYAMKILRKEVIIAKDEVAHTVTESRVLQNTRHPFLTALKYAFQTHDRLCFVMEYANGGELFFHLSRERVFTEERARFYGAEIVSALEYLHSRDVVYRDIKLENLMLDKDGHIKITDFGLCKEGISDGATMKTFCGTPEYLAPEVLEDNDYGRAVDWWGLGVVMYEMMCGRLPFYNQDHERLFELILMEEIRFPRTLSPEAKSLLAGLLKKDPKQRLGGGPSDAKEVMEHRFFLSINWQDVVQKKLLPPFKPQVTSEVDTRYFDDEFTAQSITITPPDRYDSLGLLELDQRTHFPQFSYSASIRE
Sequence of UniProt Q9HAZ1 (whole entry, looked up): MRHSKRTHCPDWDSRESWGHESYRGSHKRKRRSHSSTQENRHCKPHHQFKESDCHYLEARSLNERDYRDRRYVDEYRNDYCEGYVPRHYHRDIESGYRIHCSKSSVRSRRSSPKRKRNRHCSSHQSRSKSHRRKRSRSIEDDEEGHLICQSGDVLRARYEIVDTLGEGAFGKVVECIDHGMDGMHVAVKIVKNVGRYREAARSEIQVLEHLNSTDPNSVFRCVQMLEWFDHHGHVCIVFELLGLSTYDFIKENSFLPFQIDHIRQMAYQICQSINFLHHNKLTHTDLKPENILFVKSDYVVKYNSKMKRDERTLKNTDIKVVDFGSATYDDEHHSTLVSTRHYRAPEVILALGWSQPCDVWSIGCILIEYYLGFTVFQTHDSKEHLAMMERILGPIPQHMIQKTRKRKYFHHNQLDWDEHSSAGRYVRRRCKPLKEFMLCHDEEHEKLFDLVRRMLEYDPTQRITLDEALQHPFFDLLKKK

Sample 1
Target: RING finger protein unkempt homolog, zinc fingers 1-6, GST-SBP tag (UNK, Homo sapiens, UniProt Q9C0B0, residues 30-357)
Sequence of UniProt Q9C0B0 (30-357, looked up): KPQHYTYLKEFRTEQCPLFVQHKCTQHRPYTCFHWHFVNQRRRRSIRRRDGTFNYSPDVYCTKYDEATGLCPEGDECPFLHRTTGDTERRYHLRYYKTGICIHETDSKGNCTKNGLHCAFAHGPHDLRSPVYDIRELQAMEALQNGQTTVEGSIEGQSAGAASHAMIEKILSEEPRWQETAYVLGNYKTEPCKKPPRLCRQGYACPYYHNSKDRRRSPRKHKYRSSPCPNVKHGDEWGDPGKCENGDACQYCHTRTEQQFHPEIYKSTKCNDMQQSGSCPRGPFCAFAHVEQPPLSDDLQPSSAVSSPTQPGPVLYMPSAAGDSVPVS
Technique: RNA Bind-n-Seq
Molecule type: RNA
Medium: in vitro
Tested at: not given
Notes: RNA with constant flanks, human and mouse sites, ends assumed
Baseline: input RNA pool
Reading: higher = stronger binding
All sequences stand within: GGGAGUUCUACAGUCCGACGAUC … CAACAGAGGAUUGAGCAUCA
| Strand | bound/input enrichment [ratio] |
| --- | --- |
| AGGAGAAAAAUCAUCUUAUCAGACGAAGGCAAAAUGUAUGGUAGAAAUGAAUUGAUAGCCAGAUACAUCAAACUCAGGACGGGAAAGACAAGGACCAGGAAGCAGGUGUCUAGUCACAUU | 0.589 |
| UAUGAAUUUGACAAGUUUUGGUUUGAAGAAGAACCAGAAAGCAUUAUGUAUUUCAAUUUGUAUAGAGAGAAGUUUCAUGAAAAGAUUAAAGGACUUUUACUGGAUUGUAAUGUAGCACUU | 0.739 |
| AUACUCUUUAUAUGCUCUGGCUCAAUCAUUCAUAGCCUGGCAGACGAACAAGACAUCCGAAAAAUAGGAAACAUCACAAAAAUCAUACCAUUCACAUCAUCAUGCCUAGUAAUCGGAAGC | 0.647 |
| AUGUGAAAAUGUAUAAAUAUCAUCCAAAAGGCUUUCUGCCCUAUAUUUUUAAAAUACAGAAGUUAUAUUUGAAGUAGUCCUGGCCCUAGUUCUAUAGGGCUUGGCUAUUUAAUAUUUUUA | 0.309 |
| CUGCAAGACAAGGACAAGGAGGUGGAAGAGCUCCUUCAGGAAAUACAAUGUGAGAAGGCUCAAGCAAAGACAGCCUCUGAGCUUUCUAAAUCCAUGGAGUCCAUGCGUGGGCAUUUGCAG | 0.143 |
| AAAGAAGAUAUUGCAAUGUGGGAAGUAAAUGAAGCCUUUAGUCUGGUUGUACUAGCAAACAUUAAAAUGUUGGAGAUUGAUCCCCAAAAAGUGAAUAUCAAUGGAGGAGCUGUUUCUCUG | 0.366 |
| UCAACUAAUCGUGGUGUAAUUGUUGAAUCAGCGUAUUCUGAUAUAGUAAAAAUGAUCAGUGCUAACAUCUUCCGGACACUUCCUCCAAGUGAUAAUCCAGAUUUUGACCCGGAAGAGGAU | 0.28 |
| UAUUUUUACAGCCACACAAUUCUUGGCAUGUAUUAAGAAAAAAAAAAAUCCCUGUUCAAGUAGUUUUUCCACCUAUCAGCACUGAGUAAAUGCCAUAAAUCCAUUGAAAUGGUCUAAAUG | 0.245 |

Sample 2
Compound: O=C1CCc2cc(Nc3cc(OC4CCOCC4)c([N+](=O)[O-])cc3Cl)ccc2N1
Read-out: cell-free assay
Technique: competition with immobilised ligand
Tested at: 1 µM
| target | remaining binding [%] |
| --- | --- |
| MAP3K3 (Homo sapiens, UniProt Q99759) | 95 |
| Receptor-type tyrosine-protein kinase FLT3, autoinhibited (FLT3, Homo sapiens, UniProt P36888) | 99 |
| EGFR (Homo sapiens, UniProt P00533, del747-750/T751S) | 100 |
| BMP2K (Homo sapiens, UniProt Q9NSY1) | 100 |
| CHUK (Homo sapiens, UniProt O15111) | 100 |
| MAP3K15 (Homo sapiens, UniProt Q6ZN16) | 78 |
| SBK1 (Homo sapiens, UniProt Q52WX2) | 97 |
| CDC42BPB (Homo sapiens, UniProt Q9Y5S2) | 90 |

Sample 3
Variant: R46L
Target: ABI1, truncated, D143A, DHFR fusion (Arabidopsis thaliana)
Technique: DHFR PCA, deep sequencing
Medium: yeast
Notes: methotrexate growth selection, single substitutions
Baseline: wild-type fitted maximum
Reading: higher = stronger binding
Starting sequence: PYL1, truncated, DHFR fusion (Arabidopsis thaliana); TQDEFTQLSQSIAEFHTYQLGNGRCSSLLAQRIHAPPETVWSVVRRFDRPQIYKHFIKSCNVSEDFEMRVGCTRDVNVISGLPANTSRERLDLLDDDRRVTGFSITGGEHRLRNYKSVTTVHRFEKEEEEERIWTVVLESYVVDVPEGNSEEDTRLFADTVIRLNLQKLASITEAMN; partner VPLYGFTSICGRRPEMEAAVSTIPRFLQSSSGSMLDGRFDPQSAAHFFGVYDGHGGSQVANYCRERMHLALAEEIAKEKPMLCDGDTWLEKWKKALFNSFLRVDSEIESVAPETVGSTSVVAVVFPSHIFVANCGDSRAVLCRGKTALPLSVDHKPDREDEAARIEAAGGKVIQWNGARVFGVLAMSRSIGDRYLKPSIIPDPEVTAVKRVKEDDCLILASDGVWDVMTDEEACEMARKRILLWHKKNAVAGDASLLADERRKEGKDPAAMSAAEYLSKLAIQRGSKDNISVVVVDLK
| with | relative binding score [%] |
| --- | --- |
| (+)-ABA 58 µM | 58.1 |
| (+)-ABA 710 µM | 91.3 |
| (+)-ABA 200 µM | 79.3 |
| (+)-ABA 2500 µM | 88 |
| (+)-ABA 0 µM | 0.344 |
| (+)-ABA 0.11 µM | -1.49 |

Sample 4
SMILES: CS(=O)(=O)CCNCc1ccc(-c2ccc3ncnc(Nc4ccc(OCc5cccc(F)c5)c(Cl)c4)c3c2)o1
Read-out: enzyme activity
Action: inhibitor
Tested at: 0.5 µM
Baseline: control
| target | remaining activity |
| --- | --- |
| PAK3 (Homo sapiens, UniProt O75914) | 105% |
| MAPK1 (Homo sapiens, UniProt P28482) | 102% |
| CLK4 (Homo sapiens, UniProt Q9HAZ1) | 115% |
| AKT2 (Homo sapiens, UniProt P31751) | 105% |
| MARK4 (Homo sapiens, UniProt Q96L34) | 104% |
| DCLK2 (Homo sapiens, UniProt Q8N568) | 101% |
| NEK3 (Homo sapiens, UniProt P51956) | 99.6% |
| DDR2 (Homo sapiens, UniProt Q16832) | 107% |
| KDR (Homo sapiens, UniProt P35968) | 96.6% |
| TLK2 (Homo sapiens, UniProt Q86UE8) | 83.9% |
| RPS6KA4 (Homo sapiens, UniProt O75676) | 93.4% |
| PNCK (Homo sapiens, UniProt Q6P2M8) | 98.1% |
